Results collected from several papers.
Each line is one published result; not all experiments were run side by side. ± marks the error that the study gave.
Ugcg: Ceramide glucosyltransferase (Ugcg, Mus musculus, UniProt O88693)
Chain of UniProt O88693 (whole entry, looked up): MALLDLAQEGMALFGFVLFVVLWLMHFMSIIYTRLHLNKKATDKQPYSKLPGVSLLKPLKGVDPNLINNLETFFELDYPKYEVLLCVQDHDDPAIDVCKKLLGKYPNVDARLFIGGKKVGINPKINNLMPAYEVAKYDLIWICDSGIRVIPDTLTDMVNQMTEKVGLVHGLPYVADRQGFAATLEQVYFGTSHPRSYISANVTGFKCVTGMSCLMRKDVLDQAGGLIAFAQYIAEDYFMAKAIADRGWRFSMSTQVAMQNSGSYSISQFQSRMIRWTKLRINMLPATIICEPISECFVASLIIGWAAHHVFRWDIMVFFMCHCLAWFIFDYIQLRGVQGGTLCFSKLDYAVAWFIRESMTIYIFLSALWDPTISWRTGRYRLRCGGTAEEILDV
DRD3: D(3) dopamine receptor (DRD3, Homo sapiens, UniProt P35462)
Chain of UniProt P35462 (whole entry, looked up): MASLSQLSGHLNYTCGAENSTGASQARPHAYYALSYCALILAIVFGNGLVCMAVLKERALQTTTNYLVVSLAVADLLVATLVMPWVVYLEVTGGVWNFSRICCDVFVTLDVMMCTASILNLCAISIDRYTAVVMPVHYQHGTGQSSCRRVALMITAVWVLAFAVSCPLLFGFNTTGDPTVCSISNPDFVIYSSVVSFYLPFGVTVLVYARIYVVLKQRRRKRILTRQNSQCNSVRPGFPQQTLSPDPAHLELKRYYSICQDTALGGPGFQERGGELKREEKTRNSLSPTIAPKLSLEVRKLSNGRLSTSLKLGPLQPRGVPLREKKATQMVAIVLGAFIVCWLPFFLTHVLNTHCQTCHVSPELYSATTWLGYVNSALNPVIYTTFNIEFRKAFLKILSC
Chain of UniProt P62258 (whole entry, looked up): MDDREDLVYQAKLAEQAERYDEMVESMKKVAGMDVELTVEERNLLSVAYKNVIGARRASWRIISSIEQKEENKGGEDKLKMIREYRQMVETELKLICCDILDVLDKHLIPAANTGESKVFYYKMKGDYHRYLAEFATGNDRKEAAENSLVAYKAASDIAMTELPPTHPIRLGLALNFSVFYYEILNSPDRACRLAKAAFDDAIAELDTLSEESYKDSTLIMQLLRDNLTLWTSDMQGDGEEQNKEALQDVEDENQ
Chain of UniProt Q92847 (whole entry, looked up): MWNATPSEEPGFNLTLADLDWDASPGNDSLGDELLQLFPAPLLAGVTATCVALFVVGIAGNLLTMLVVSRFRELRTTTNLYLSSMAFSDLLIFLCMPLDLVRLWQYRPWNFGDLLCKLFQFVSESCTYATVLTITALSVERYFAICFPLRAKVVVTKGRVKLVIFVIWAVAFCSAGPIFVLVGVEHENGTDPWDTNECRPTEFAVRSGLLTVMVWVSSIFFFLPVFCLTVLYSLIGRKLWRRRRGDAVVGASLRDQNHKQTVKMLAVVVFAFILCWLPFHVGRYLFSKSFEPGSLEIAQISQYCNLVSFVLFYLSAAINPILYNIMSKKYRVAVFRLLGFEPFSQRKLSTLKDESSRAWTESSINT
Chain of UniProt P17706 (whole entry, looked up): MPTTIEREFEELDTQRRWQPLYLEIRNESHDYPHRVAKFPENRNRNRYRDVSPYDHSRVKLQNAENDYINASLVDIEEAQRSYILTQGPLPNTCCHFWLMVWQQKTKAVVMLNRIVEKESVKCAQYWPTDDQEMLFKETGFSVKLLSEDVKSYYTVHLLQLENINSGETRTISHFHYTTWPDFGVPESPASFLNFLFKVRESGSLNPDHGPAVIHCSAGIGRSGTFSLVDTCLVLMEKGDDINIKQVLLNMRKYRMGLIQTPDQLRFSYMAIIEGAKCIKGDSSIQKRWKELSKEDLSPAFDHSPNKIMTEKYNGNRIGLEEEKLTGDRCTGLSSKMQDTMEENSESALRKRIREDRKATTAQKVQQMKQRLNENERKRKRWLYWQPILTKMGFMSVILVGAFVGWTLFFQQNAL
Chain of UniProt Q9UM73 (whole entry, unmodified, looked up): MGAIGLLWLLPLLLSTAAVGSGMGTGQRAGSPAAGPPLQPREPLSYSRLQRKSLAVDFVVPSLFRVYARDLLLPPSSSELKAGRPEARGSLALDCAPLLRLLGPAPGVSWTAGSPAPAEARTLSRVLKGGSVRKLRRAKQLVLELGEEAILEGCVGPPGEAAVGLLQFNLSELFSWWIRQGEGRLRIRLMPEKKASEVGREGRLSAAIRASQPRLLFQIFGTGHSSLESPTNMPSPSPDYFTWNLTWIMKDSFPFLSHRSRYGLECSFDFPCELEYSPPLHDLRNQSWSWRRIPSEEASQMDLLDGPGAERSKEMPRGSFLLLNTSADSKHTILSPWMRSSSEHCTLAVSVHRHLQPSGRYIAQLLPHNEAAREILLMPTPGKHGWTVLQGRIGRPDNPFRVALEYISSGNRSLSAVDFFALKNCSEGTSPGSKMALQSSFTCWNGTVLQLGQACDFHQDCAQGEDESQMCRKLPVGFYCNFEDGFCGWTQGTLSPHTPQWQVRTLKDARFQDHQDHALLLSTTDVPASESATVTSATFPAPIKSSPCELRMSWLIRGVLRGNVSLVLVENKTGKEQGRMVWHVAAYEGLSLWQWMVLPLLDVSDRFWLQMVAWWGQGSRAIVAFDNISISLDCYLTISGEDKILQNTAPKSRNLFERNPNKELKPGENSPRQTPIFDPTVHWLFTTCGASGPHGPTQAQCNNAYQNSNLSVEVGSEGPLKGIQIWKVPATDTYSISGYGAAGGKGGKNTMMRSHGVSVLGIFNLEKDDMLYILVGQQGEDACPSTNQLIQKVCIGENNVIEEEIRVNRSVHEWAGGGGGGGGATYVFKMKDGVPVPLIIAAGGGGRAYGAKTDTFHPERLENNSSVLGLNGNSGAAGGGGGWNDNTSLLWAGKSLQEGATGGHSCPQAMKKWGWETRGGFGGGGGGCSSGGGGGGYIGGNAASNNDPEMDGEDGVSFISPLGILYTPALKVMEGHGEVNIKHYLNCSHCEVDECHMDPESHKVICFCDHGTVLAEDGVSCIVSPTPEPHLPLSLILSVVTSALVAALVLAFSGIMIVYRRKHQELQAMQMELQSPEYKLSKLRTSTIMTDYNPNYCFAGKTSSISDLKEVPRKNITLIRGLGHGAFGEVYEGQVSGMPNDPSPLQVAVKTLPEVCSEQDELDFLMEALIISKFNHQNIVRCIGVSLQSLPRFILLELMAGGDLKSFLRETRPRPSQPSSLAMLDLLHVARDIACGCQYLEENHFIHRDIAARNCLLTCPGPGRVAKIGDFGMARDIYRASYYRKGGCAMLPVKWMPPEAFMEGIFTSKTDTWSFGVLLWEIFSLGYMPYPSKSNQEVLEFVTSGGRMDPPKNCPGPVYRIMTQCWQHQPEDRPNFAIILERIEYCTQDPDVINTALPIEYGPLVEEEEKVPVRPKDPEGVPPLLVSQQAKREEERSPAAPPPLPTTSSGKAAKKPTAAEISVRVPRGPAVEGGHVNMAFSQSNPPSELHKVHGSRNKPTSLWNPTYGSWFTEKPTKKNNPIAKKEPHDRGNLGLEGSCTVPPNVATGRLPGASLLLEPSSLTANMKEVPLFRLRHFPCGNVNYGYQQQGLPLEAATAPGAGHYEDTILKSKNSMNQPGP
Chain of UniProt Q15418 (whole entry, looked up): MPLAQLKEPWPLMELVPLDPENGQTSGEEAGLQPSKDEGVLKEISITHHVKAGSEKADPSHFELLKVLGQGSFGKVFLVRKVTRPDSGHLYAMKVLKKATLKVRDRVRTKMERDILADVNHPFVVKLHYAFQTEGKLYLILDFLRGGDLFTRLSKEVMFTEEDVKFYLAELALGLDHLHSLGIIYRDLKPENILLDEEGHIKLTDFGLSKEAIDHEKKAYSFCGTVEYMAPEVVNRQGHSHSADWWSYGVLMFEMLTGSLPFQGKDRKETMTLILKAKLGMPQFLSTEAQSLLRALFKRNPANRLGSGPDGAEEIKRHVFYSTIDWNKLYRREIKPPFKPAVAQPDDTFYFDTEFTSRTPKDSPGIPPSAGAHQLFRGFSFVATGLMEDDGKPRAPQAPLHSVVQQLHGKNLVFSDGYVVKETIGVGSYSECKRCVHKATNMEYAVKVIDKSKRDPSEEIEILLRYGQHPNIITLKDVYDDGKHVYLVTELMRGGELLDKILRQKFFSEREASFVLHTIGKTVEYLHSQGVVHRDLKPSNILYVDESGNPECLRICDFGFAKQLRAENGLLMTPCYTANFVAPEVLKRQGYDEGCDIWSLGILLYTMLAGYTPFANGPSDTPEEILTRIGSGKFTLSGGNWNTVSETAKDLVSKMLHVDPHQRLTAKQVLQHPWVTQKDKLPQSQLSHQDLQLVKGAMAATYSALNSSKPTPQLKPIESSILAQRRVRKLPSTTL
Chain of UniProt P25103 (whole entry, looked up): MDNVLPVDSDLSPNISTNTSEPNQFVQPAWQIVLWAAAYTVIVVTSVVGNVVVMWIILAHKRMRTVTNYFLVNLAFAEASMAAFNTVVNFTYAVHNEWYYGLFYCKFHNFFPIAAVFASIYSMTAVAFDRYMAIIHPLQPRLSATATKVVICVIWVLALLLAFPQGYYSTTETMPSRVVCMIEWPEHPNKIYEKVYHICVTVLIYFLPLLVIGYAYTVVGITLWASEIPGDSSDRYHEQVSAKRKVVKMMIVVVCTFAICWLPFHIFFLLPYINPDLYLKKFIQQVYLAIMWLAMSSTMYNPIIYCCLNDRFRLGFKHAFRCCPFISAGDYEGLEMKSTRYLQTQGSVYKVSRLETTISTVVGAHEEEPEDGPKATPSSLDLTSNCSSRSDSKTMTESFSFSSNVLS
Chain of UniProt P00761 (whole entry, looked up): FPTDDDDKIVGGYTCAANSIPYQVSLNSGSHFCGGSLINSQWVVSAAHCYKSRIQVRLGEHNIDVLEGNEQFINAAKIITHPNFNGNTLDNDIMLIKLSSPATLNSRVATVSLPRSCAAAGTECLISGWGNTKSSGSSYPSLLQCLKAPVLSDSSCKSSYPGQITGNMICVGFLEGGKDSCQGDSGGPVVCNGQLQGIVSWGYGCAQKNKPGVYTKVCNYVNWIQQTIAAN

`CSCC[C@H](NC(=O)[C@H](CC(C)C)NC(=O)CNC(=O)[C@H](Cc1ccccc1)NC(=O)[C@H](Cc1ccccc1)NC(=O)[C@@H](N)CCC(N)=O)C(N)=O` has an EC50 of 0.0501 µM (Substance-P receptor, with miniGs/q (TACR1, Homo sapiens, UniProt P25103); miniGs/q recruitment, BRET; HEK293; 30 min).
`CCCCCOCCCCCN1C[C@H](O)[C@@H](O)[C@H](O)[C@H]1CO` gave an IC50 of 2 µM (Ugcg; enzyme activity, inhibitor, fluorescence).
For `COc1ccc(C(=O)c2c(C(=O)NCCCN(C)C)oc3ccc(Cl)cc3c2=O)cc1OC`, the EC50 was 0.182 µM (GHSR (Homo sapiens, UniProt Q92847); β-arrestin 2 recruitment, NanoBiT; HEK293T).
For `CN(C)c1ccc(/C=C/c2cc(/C=C3\Sc4ccccc4N3CCCN3CCCC3)c3ccccc3[n+]2C)cc1`, the Kd was 2.93 µM (Telo21 DNA; isothermal titration calorimetry; pH 7.4, 25 °C, 2% DMSO).
With `Cc1ccccc1-c1ccc(COCCCCCN2C[C@H](O)[C@@H](O)[C@H](O)[C@H]2CO)cc1` the IC50 was 0.025 µM (Ugcg; enzyme activity, inhibitor, fluorescence).
The Ki of `OCCNCc1ccc(-c2cc(Cl)cc(Cl)c2)o1` is reported as 0.236 µM (DRD3; ligand displacement, radioligand).
With `OC[C@H]1[C@@H](O)[C@H](O)[C@@H](O)CN1CCCCCOCc1ccc(-c2ccccc2)cc1C(F)(F)F` the IC50 was 0.003 µM (Ugcg; enzyme activity, inhibitor, fluorescence).
For `COC1(C2=NCCN2)COc2ccccc2O1` (centres unmarked), the Kd was 0.0025 ± 0.00011 µM (α2-adrenergic receptor chimera; [3H]compound saturation binding; HEK293 membranes; α2a(NT-TM7)/α2c(CT)-AR chimera).
`Cn1c(=O)n(C2CCC(=O)NC2=O)c2ccc(C3CCN(CC(=O)Nc4cccc(CS(=O)(=O)N5CC[C@H](Nc6cccc(-c7sc(C(=O)O)c(OCC(=O)O)c7Cl)c6)CC5(C)C)c4)CC3)cc21` (some centres unmarked) gave a DC50 of 0.041 ± 0.023 µM (PTPN2 (Homo sapiens, UniProt P17706); degrader, HiBiT; B16-F10 cells; 24 h).
For `OC[C@H]1N[C@H](C/C=C/CCOCC23CC4CC(CC(C4)C2)C3)[C@H](O)[C@@H](O)[C@@H]1O`, the IC50 was 10 µM (Ugcg; enzyme activity, inhibitor, fluorescence).
With `OB(O)c1ccc(OCc2ccccc2)nc1F` the Ki was > 5000 µM (Trypsin (Sus scrofa, UniProt P00761); enzyme activity, inhibitor).
`CCCNC(=O)C1CCCN(CCOc2ccc(Cl)cc2)C1` (centres unmarked) has a Ki of 0.335 µM (DRD3; ligand displacement, radioligand).
`NS(=O)(=O)c1cccc(-c2ccc([C@H]3[C@@H](F)[C@@H](F)C[C@@H](F)[C@H]3F)cc2)c1` gave a hepatic clearance of 10 mL/min/kg (liver microsome stability; dog liver microsomes; 1 µM).
The IC50 of `OC[C@H]1[C@@H](O)[C@H](O)[C@@H](O)CN1CCCCCOCc1cccc(-c2ccccc2)c1` is reported as 0.07 µM (Ugcg; enzyme activity, inhibitor, fluorescence).
`F[C@@H]1[C@H](c2ccc(-c3cnc(N4CCOCC4)nc3)cc2)[C@H](F)[C@H](F)C[C@@H]1F` gave a hepatic clearance of 3.9 mL/min/kg (liver microsome stability; human liver microsomes; 1 µM, without NADPH).
`COc1ccccc1-c1ccc(COCCCCCN2C[C@H](O)[C@@H](O)[C@H](O)[C@H]2CO)cc1` has an IC50 of 0.05 µM (Ugcg; enzyme activity, inhibitor, fluorescence).
With `CCc1nc2cc3ccccc3cc2cc1C(=O)N1CCC[C@H]1C(=O)N[C@@H](C/C=C\C[C@H](NC(=O)[C@@H]1CCCN1C(=O)c1cc2cc3ccccc3cc2nc1CC)C(=O)N[C@@H](CCCCN)C(=O)NCCCN)C(=O)N[C@@H](CCCCN)C(=O)NCCCN` the Kd was 0.021 µM ((CUG)2 RNA; SPR).
For `CC(=O)N[C@@H](CCCNC(=N)N)C(=O)N[C@H](C(=O)N[C@@H](CCCCN)C(=O)N[C@@H](CO)C(=O)N[C@@H](CCCNC(=N)N)C(=O)N[C@H](C(=O)N[C@@H](Cc1c[nH]c2ccccc12)C(=O)N[C@@H](C)C(=O)NCC(=O)N[C@@H](CCC(=O)O)C(=O)N[C@@H](CCCCN)C(=O)N[C@@H](CO)C(=O)N[C@@H](CCCCN)C(=O)N[C@@H](CCCNC(=N)N)C(N)=O)[C@@H](C)OP(=O)(O)O)[C@@H](C)O`, “binding free energy” read -9.32 ± 0.01 kcal/mol (14-3-3 protein epsilon (Homo sapiens, UniProt P62258); surface plasmon resonance; 298 K).
`CCn1nc(Cl)c2c1-c1cnc(N)c(c1)O[C@H](C)c1cc(F)ccc1-c1nn(C)cc1C2` has an IC50 of 0.0034 µM (ALK (Homo sapiens, UniProt Q9UM73, I1171N); enzyme activity, inhibitor; added: 1 mM ATP).
`Cc1nn(-c2cccc(N)c2)c(=O)c2cnc(Nc3ccc(N4CCNCC4)cc3)nc12` gave an IC50 of > 10 µM (RPS6KA1 (Homo sapiens, UniProt Q15418); enzyme activity, inhibitor).
